Published values pooled from the literature.
Lines come from different studies, so protocols differ. “And” joins repeats or separate records; there may be more than shown. ± marks the error that the study gave.
SLC22A11: Solute carrier family 22 member 11 (SLC22A11, Homo sapiens, UniProt Q9NSA0)
UniProt Q9NSA0, sequence (whole entry, looked up): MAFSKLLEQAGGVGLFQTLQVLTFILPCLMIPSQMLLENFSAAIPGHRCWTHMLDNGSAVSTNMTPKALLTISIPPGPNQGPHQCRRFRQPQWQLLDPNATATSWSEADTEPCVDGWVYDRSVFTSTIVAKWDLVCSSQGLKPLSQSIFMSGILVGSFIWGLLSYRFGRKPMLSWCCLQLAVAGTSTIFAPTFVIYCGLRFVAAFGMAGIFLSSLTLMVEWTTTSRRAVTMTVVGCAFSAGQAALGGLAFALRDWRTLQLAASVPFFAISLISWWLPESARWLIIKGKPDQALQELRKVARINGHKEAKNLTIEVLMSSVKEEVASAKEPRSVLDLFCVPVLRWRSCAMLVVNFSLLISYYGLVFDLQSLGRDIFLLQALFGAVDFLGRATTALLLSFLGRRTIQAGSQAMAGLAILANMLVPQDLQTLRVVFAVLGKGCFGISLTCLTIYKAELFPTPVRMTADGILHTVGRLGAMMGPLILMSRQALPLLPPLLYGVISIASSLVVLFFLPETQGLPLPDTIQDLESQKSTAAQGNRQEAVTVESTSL
Proteasome subunit beta type-9: Proteasome subunit beta type-9 (Homo sapiens, UniProt P28065)
UniProt P28065, sequence (whole entry, looked up): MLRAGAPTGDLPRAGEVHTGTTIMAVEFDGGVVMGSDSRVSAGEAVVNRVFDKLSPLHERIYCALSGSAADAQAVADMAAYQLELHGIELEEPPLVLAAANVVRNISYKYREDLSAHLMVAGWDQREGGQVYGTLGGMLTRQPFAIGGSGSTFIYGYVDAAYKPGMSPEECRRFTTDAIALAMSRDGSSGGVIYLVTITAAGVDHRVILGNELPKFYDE
Probable G-protein coupled receptor 34: Probable G-protein coupled receptor 34 (Homo sapiens, UniProt Q9UPC5)
UniProt Q9UPC5, sequence (whole entry, looked up): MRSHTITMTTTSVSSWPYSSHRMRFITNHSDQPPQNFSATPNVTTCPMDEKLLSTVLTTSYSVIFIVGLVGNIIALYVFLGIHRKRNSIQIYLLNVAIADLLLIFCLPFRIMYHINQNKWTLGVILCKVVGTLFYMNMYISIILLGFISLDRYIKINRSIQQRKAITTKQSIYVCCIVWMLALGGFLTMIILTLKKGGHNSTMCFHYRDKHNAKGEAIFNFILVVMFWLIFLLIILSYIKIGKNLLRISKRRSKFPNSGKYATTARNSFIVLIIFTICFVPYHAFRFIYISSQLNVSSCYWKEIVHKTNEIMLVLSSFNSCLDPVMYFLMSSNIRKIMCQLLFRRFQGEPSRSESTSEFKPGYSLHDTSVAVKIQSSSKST
P2RX4: P2X purinoceptor 4 (P2RX4, Homo sapiens, UniProt Q99571)
UniProt Q99571, sequence (whole entry, looked up): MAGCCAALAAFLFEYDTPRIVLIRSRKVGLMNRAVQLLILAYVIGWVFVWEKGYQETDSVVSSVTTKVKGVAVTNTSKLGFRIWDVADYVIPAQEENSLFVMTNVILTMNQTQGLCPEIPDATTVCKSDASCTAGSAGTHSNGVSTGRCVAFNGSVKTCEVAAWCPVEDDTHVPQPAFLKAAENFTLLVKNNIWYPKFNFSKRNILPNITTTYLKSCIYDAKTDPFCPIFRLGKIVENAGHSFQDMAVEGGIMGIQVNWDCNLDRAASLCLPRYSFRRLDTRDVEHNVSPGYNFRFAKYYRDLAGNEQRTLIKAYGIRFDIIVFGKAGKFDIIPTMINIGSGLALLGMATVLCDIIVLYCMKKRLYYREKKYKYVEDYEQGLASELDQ
UniProt Q69ZF3, sequence (whole entry, looked up): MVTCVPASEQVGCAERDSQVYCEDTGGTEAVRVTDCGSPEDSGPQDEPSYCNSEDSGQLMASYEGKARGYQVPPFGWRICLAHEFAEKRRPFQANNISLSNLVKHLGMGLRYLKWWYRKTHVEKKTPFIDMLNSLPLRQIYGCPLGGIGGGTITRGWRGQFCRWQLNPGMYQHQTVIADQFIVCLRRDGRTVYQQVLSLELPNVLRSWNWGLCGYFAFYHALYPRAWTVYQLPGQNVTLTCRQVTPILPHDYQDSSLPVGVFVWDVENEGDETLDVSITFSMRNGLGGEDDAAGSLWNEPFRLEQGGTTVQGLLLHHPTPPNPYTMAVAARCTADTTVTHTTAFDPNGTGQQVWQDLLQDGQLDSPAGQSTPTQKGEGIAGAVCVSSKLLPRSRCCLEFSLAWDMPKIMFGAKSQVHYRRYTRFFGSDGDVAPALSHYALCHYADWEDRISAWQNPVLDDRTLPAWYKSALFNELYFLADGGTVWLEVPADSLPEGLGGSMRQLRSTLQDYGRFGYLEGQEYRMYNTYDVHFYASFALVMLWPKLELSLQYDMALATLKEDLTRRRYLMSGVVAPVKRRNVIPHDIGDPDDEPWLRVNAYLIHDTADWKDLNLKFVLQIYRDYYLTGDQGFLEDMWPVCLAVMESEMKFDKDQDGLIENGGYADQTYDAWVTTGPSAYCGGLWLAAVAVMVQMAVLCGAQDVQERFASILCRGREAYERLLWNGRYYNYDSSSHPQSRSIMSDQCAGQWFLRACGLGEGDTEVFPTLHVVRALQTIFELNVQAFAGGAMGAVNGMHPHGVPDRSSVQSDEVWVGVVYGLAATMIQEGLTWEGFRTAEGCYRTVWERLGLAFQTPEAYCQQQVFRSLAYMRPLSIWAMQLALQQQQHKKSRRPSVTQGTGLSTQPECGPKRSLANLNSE
UniProt Q8C6L5, sequence (whole entry, looked up): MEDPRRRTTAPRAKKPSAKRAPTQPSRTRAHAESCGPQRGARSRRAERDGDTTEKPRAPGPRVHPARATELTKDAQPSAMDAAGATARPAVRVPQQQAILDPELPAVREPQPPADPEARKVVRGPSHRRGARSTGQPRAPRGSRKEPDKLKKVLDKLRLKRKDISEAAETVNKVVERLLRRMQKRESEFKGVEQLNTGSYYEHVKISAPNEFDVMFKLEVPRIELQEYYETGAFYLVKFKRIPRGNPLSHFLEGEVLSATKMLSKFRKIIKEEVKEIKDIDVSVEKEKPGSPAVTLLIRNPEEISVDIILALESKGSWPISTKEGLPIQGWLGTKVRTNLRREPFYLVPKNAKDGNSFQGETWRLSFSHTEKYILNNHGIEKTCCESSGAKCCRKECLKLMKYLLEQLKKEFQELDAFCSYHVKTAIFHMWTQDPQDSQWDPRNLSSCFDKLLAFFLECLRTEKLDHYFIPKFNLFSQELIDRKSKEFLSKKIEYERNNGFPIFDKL
UniProt P06213, sequence (whole entry, looked up): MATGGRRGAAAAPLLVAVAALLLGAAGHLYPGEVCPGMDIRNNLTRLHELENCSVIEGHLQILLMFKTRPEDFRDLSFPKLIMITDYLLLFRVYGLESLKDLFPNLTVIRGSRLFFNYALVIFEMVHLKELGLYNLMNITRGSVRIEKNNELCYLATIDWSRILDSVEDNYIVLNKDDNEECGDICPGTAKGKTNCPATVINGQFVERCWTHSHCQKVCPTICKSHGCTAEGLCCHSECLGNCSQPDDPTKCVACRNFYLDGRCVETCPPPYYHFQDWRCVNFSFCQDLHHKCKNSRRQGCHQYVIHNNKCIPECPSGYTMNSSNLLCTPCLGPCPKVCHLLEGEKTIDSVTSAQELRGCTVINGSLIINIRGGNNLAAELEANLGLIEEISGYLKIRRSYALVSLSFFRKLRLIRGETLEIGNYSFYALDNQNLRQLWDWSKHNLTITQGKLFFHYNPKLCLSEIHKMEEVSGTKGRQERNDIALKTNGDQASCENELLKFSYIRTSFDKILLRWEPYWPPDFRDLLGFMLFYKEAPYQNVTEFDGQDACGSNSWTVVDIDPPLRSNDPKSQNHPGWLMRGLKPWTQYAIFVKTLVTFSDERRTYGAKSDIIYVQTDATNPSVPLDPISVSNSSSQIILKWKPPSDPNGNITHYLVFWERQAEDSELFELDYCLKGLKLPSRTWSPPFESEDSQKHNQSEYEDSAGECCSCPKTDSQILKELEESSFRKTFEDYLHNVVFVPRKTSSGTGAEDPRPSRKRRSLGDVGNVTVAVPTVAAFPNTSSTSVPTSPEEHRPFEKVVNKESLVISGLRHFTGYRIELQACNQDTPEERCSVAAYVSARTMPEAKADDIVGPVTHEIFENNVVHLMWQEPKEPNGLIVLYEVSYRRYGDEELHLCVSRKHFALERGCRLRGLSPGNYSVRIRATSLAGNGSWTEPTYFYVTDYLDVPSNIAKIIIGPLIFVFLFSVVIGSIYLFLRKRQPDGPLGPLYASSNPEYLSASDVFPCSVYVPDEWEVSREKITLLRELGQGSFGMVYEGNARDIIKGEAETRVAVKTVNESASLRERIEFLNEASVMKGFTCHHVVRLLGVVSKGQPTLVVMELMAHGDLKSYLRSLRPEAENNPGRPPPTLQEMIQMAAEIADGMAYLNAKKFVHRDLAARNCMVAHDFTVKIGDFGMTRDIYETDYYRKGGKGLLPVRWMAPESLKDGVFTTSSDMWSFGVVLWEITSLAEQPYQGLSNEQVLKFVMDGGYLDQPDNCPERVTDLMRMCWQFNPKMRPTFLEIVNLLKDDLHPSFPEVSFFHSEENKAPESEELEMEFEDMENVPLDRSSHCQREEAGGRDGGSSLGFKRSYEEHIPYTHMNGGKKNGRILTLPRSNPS
UniProt Q9NPD5, sequence (whole entry, unmodified, looked up): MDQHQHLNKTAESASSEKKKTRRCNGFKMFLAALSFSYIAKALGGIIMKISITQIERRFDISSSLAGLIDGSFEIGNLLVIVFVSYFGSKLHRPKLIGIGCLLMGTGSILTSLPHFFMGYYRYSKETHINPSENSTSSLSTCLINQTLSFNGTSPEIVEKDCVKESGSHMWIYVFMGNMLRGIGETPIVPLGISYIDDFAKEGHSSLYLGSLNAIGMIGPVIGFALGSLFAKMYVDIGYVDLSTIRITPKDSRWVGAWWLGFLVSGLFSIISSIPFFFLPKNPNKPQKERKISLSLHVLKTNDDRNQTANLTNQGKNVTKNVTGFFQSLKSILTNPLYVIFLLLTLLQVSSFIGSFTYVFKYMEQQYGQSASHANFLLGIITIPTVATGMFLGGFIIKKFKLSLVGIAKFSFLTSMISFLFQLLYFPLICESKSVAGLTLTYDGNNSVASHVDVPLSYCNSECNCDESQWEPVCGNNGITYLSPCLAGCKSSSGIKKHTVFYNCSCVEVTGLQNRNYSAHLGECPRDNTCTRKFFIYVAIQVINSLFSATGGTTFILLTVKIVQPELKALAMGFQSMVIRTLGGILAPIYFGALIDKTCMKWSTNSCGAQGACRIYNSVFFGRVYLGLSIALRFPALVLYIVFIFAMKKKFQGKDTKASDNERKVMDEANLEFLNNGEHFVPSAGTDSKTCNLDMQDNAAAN

`C=CC(=O)N1CCC([C@@H]2CCNc3c(C(N)=O)c(-c4ccc(Oc5ccccc5)cc4)nn32)CC1` has an IC50 of 0.302 µM (SRC (Homo sapiens, UniProt P12931)).
`CCCc1nc2c(C)cc(-c3nc4ccccc4n3C)cc2n1Cc1ccc(-c2ccccc2C(=O)O)cc1` gave an IC50 of 30.7 ± 5 µM (SLC22A11; transport, inhibitor; CHO expressing hOAT4; 5 min, together with: [3H]estrone sulfate 14 nM).
With `Cc1ccc(S(=O)(=O)/C=C/C#N)cc1` the IC50 was 1.7 µM (USP6 (Homo sapiens, UniProt P35125); enzyme activity, inhibitor, MALDI-TOF DUB; 35 min preincubation, 30 °C).
`COC[C@H](NC(=O)[C@H](CC(C)C)NC(=O)[C@H](Cc1ccccc1)N=[N+]=[N-])C(=O)N[C@H](/C=C/S(C)(=O)=O)Cc1ccc(CN)cc1` has an IC50 of over 10 µM (Proteasome subunit beta type-9; competitive ABPP; Raji cell lysate).
For `COCCCOc1ccnc(C[S+]([O-])c2nc3ccccc3[nH]2)c1C` (stereo not shown), the IC50 was 3.6 µM (CTDSP1 (Homo sapiens, UniProt Q9GZU7); enzyme activity, inhibitor; together with: pNPP).
For `O=C1OC2(c3ccccc31)c1cc(Br)c(O)c(Br)c1Oc1c2cc(Br)c(O)c1Br`, the IC50 was over 75 µM (Superoxide dismutase [Cu-Zn], fully metallated (SOD1, Homo sapiens, UniProt P00441); enzyme activity, inhibitor, XTT).
The IC50 of `NCCOCCCN1CCN(c2ccc(-c3cncc(Cl)c3N3CCC4(CCNC4=O)CC3)cc2)CC1` is reported as 0.001 ± 0.0001 µM (Cyclin-dependent kinase 8, with cyclin C (CDK8, Homo sapiens, UniProt P49336)).
For `CN1CCN(c2ccc(Nc3ncc4cc(C#N)c(=O)n(C5CCCC5)c4n3)cc2)CC1`, the IC50 was 1.99 µM (MAP3K10 (Homo sapiens, UniProt Q02779)).
The IC50 of `CC(C)C[C@H](NC(=O)c1cnccn1)C(=O)N[C@@H](C)C(=O)N[C@H](/C=C/S(C)(=O)=O)Cc1ccc(CN)cc1` is reported as over 10 µM (Proteasome subunit beta type-9; competitive ABPP; Raji cell lysate).
The IC50 of `Cc1c(-c2ccccc2)oc2c(C(=O)O)cccc2c1=O` is reported as 18.5 µM (LRRC8A (Homo sapiens, UniProt Q8IWT6); hypotonicity-induced current; HEK293).
`Cn1cc(-c2ccc3c(c2)CCN3C(=O)Cc2cccc(C(F)(F)F)c2)c2c(N)ncnc21` gave an IC50 of over 10 µM (Probable G-protein coupled receptor 34; antagonist, Tango; together with: LysoPS 5 µM).
`COc1ccc(OCC2CNCCN2c2ccc(F)cc2)cc1OC` (stereo not shown) has an IC50 of over 100 µM (P2RX4; Ca2+ flux, antagonist; human cells expressing P2RX4; racemate tested).
For `Cc1nn(-c2nc3c(F)cc(F)cc3s2)c(O)c1C(c1ccc(C(F)(F)F)cc1)c1c(C)nn(-c2nc3c(F)cc(F)cc3s2)c1O`, the IC50 was 3.43 µM and 2.15 µM (Cgas (Mus musculus, UniProt Q8C6L5); enzyme activity, inhibitor, pyrophosphatase-coupled; mouse cGAS).
For `O=C1C(CC[S+]([O-])c2ccccc2)C(=O)N(c2ccccc2)N1c1ccccc1` (stereo not shown), the IC50 was 1.04 ± 0.5 µM (SLC22A11; transport, inhibitor; CHO expressing hOAT4; 5 min, together with: 6-carboxyfluorescein 25 µM).
For `COc1cccc2c1C(=O)c1c(O)c3c(c(O)c1C2=O)C[C@@](O)(C(=O)CO)C[C@@H]3O[C@H]1C[C@H](N)[C@H](O)[C@H](C)O1`, the IC50 was over 100 µM (SLCO1B3 (Homo sapiens, UniProt Q9NPD5, M233I/S112A); estradiol glucuronide uptake, inhibitor; SLCO1B3-expressing cells; 2 min, together with: 1 µM [3H]estradiol glucuronide).
With `Nc1nc(=O)n([C@H]2C[C@H](O)[C@@H](CO)O2)cc1CSCCC[C@H]1O[C@@H](n2cnc3c(N)ncnc32)[C@H](O)[C@@H]1O` the IC50 was 3.9 µM (DNMT1 (Homo sapiens, UniProt P26358); truncated enzyme, together with: 26 bp hemimethylated DNA, SAM 1 µM).
`Cc1ccc2c(c1)C(=O)[C@]1(O)CCN(c3ccc4nc(C)ccc4c3)C1=N2` has an IC50 of over 10 µM (CACNA1C (Homo sapiens, UniProt Q13936); safety pharmacology screen; estimated).
`Cc1cc(Nc2ccc(NC(=O)c3ccc(Nc4ccnc5ccccc45)cc3)cc2)nc(N)n1` gave an IC50 of over 10 µM (Probable G-protein coupled receptor 34; antagonist, Tango; together with: LysoPS 5 µM).
The IC50 of `Cc1ncc(C(=O)N[C@@H](CC2CCCCC2)C(=O)N[C@@H](CC2CCCCC2)C(=O)N[C@H](/C=C/S(C)(=O)=O)Cc2ccc(CN)cc2)s1` is reported as over 10 µM (Proteasome subunit beta type-9; competitive ABPP; Raji cell lysate).
The IC50 of `Cc1nc2ncnn2c(Nc2ccc(C(F)(F)F)cc2)c1Cl` is reported as 4.8 ± 1.9 µM (Dihydroorotate dehydrogenase (quinone) (pyrD, Acinetobacter baumannii, UniProt B7GZW7); enzyme activity, inhibitor, DCIP steady-state rate).
For `COc1ccc2c(=O)[nH]c3c(nnn3Cc3ccc(C)cc3)c2c1`, the IC50 was 0.0977 µM (PARP11 (Homo sapiens, UniProt Q9NR21)).
With `Fc1ccc(CN2CCNCC2COc2ccc3c(c2)OCO3)cc1` (stereo not shown) the IC50 was 1.86 ± 0.24 µM (P2RX4; calcium flux, inhibitor, Ca2+ flux; human cells).
The IC50 of `CC(C)C[C@H](NC(=O)[C@H](CCc1ccccc1)NC(=O)CN1CCOCC1)C(=O)N[C@@H](Cc1ccccc1)C(=O)N[C@@H](CC(C)C)C(=O)[C@@]1(C)CO1` is reported as 0.00705 ± 0.00235 µM (Proteasome subunit beta type-1/Psmb8, LMP7 subunit (Mus musculus, UniProt O09061+P28063); proteasome activity, inhibitor; Ba/F3 p210; 1 h pulse).
`O=S(=O)(c1ccc(Cl)cc1)N1CCNCC1COc1ccc2ccccc2c1` (stereo not shown) has an IC50 of 14.8 ± 2.6 µM (P2RX4; calcium flux, inhibitor, Ca2+ flux; human cells).
`CCn1c(-c2nc3cc(C(=O)N4CCC[C@@H](N)C4)cc(OC)c3n2C)cc2cccnc21` has an IC50 of 0.807 µM (PADI4 (Homo sapiens, UniProt Q9UM07); binding, fluorescence polarisation; together with: tracer displacement, 2 mM Ca2+).
The IC50 of `O=c1c(O)c(-c2ccc(O)c(O)c2)oc2cc(O)ccc12` is reported as over 100 µM (MAOB (Homo sapiens, UniProt P27338); enzyme activity, inhibitor; together with: kynuramine 50 µM).
For `CC(C)C[C@H](NC(=O)c1ccc(-c2ccccc2)nc1)C(=O)N[C@@H](CC(C)C)C(=O)N[C@H](/C=C/S(C)(=O)=O)Cc1ccc(CN)cc1`, the IC50 was over 10 µM (Proteasome subunit beta type-9; competitive ABPP; Raji cell lysate).
The IC50 of `Fc1ccc(N2CCNCC2COc2ccncc2)cc1` (stereo not shown) is reported as over 100 µM (P2RX4; Ca2+ flux, antagonist; human cells expressing P2RX4; racemate tested).
`CN1CCC(CNc2ccc3ncc(-c4cccc(OC(F)(F)F)c4)n3n2)CC1` gave an IC50 of 0.442 µM (Insulin receptor (INSR, Homo sapiens, UniProt P06213); binding, KINOMEscan binding; top concentration 10 µM).
`COCCOc1ccc(N2CCNCC2COc2ccc3c(c2)OCO3)cc1` (stereo not shown) gave an IC50 of over 10 µM (P2RX4; calcium flux, inhibitor, Ca2+ flux; human cells).
The IC50 of `C=CCNc1cc(-c2ccccc2)nc(-c2ccccn2)n1` is reported as 6.3 µM (CLEC1B, with podoplanin (Homo sapiens, UniProt Q9P126); podoplanin binding, inhibitor, AlphaScreen; 250 nM CLEC-2, together with: 50 nM biotinylated podoplanin-Fc).
For `CCCNc1c2c([nH]c(=O)c1C(=O)OCC)CCC2`, the IC50 was 76.4 ± 2.9 µM (Gag-Pol polyprotein, reverse transcriptase (gag-pol, Human immunodeficiency virus 1, UniProt P03366); reverse transcriptase activity, inhibitor; recombinant wild-type enzyme).
For `Fc1ccc(N2CCNCC2COc2ccc3ccccc3c2)cc1` (stereo not shown), the IC50 was 1.38 ± 0.18 µM (P2RX4; calcium flux, inhibitor, Ca2+ flux; human cells).
`COc1ccccc1C(=O)Nc1ccc(-c2nc3ccccc3[nH]2)cc1` has an IC50 of 13.4 µM (Moesin, with CD44 (Homo sapiens, UniProt P26038); MSN-CD44 binding, inhibitor, TR-FRET).
For `COc1cc(-c2cc(C(C)=O)n3ccccc23)cc(OC)c1Cn1ccnc1`, the IC50 was 0.042 µM (BRD7 (Homo sapiens, UniProt Q9NPI1); inhibitor).
`CCCCCN1C[C@H](O)[C@@H](O)[C@H](O)[C@@H]1CO` gave an IC50 of 0.0021 µM and 0.002 µM (Non-lysosomal glucosylceramidase (Mus musculus, UniProt Q69ZF3); GlcCer d18:1/18:0 accumulation, inhibitor; mouse primary cerebrocortical cells; 3 days, upward arm of bell-shaped curve).
For `CCn1c(-c2nc3ccc(C(=O)N4CCCC(N)C4)cc3n2C)cc2ccccc21` (stereo not shown), the IC50 was over 100 µM (OPRM1 (Homo sapiens, UniProt P35372); antagonist, GTPγS binding).

Repeated from above:
`Cc1ccc2c(c1)C(=O)[C@]1(O)CCN(c3ccc4nc(C)ccc4c3)C1=N2` has an IC50 of over 10 µM (CACNA1C (Homo sapiens, UniProt Q13936); safety pharmacology screen; estimated).
`Cc1cc(Nc2ccc(NC(=O)c3ccc(Nc4ccnc5ccccc45)cc3)cc2)nc(N)n1` gave an IC50 of over 10 µM (Probable G-protein coupled receptor 34; antagonist, Tango; together with: LysoPS 5 µM).
The IC50 of `Cc1ncc(C(=O)N[C@@H](CC2CCCCC2)C(=O)N[C@@H](CC2CCCCC2)C(=O)N[C@H](/C=C/S(C)(=O)=O)Cc2ccc(CN)cc2)s1` is reported as over 10 µM (Proteasome subunit beta type-9; competitive ABPP; Raji cell lysate).
The IC50 of `Cc1nc2ncnn2c(Nc2ccc(C(F)(F)F)cc2)c1Cl` is reported as 4.8 ± 1.9 µM (Dihydroorotate dehydrogenase (quinone) (pyrD, Acinetobacter baumannii, UniProt B7GZW7); enzyme activity, inhibitor, DCIP steady-state rate).
For `COc1ccc2c(=O)[nH]c3c(nnn3Cc3ccc(C)cc3)c2c1`, the IC50 was 0.0977 µM (PARP11 (Homo sapiens, UniProt Q9NR21)).
